Experimental data collected from several papers.
Numbers after ± are the reported error.
GAP50: Glideosome-associated protein 50 (GAP50, Plasmodium falciparum, UniProt Q8I2X3)
UniProt Q8I2X3, sequence (whole entry, looked up): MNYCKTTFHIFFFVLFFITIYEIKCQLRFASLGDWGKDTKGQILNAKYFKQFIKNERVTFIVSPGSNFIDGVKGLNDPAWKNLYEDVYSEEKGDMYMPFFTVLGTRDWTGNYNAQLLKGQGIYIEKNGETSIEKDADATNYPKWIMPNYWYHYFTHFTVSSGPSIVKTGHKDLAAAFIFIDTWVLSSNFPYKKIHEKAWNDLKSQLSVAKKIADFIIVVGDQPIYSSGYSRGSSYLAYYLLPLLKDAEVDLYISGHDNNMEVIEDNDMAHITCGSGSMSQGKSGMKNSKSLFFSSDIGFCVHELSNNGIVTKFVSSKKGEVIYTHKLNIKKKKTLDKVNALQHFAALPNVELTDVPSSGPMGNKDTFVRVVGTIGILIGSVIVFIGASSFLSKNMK
USP51 ZnF-UBD domain: Ubiquitin carboxyl-terminal hydrolase 51, ZnF-UBD domain (USP51, Homo sapiens, UniProt Q70EK9)
UniProt Q70EK9, sequence (whole entry, looked up): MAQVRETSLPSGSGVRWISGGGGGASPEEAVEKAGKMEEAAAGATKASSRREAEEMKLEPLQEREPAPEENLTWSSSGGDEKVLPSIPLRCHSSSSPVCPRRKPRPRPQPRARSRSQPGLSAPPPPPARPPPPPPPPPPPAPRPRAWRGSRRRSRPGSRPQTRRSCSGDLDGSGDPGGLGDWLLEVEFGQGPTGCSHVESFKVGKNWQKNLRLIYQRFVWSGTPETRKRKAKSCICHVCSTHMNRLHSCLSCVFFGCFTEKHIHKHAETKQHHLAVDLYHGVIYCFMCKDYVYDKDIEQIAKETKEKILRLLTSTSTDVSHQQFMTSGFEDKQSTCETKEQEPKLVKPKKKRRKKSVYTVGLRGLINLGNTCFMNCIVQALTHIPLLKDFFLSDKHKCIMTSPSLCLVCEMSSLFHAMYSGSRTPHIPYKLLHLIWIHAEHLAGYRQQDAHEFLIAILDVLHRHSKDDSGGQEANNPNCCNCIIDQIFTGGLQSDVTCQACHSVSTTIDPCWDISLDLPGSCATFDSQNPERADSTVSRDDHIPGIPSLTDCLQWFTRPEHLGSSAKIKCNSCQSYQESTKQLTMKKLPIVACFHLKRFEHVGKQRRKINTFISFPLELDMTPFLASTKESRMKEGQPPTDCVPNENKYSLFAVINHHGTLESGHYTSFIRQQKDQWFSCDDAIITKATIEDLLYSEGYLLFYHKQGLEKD
CDK9: Cyclin-dependent kinase 9 (CDK9, Homo sapiens, UniProt P50750)
UniProt P50750, sequence (whole entry, looked up): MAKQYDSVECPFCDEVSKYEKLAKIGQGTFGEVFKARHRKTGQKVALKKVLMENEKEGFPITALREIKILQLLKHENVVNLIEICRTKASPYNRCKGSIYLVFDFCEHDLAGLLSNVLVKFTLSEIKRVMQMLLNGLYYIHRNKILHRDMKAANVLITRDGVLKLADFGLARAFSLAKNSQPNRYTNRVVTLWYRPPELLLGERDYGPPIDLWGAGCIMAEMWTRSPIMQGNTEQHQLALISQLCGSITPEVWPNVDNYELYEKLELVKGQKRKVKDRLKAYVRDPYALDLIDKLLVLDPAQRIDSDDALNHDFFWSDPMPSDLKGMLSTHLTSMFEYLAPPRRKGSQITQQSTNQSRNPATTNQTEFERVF
Kir3.1/Kir3.2: Kir3.1/Kir3.2 (Homo sapiens, UniProt P48051+P48549)
UniProt P48051, sequence (whole entry, looked up): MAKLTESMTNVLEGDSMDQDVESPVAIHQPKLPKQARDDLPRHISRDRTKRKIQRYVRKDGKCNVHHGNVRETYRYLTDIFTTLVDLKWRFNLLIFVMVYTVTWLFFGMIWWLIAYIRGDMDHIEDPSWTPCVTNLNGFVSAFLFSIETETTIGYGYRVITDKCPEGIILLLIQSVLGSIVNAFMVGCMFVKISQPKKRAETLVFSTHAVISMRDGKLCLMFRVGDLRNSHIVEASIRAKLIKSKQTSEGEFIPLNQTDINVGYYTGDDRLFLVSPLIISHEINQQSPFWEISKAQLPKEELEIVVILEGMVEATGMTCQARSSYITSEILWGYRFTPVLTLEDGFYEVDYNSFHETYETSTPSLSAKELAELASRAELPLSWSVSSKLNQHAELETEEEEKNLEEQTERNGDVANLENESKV
UniProt P48549, sequence (whole entry, looked up): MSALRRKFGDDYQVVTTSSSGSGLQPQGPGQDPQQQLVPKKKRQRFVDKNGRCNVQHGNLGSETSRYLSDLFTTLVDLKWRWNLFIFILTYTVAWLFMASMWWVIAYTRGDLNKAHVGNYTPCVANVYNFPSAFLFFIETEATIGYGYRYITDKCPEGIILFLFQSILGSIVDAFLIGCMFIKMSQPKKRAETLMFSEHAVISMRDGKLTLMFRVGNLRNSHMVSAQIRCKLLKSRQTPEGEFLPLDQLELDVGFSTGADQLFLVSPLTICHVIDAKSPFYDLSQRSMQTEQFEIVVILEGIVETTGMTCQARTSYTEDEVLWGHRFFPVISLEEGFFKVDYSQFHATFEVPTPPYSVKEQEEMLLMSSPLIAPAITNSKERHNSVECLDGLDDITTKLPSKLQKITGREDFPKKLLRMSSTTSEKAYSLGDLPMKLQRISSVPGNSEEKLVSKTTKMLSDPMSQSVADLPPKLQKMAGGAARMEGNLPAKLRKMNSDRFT
UniProt Q16584, sequence (whole entry, looked up): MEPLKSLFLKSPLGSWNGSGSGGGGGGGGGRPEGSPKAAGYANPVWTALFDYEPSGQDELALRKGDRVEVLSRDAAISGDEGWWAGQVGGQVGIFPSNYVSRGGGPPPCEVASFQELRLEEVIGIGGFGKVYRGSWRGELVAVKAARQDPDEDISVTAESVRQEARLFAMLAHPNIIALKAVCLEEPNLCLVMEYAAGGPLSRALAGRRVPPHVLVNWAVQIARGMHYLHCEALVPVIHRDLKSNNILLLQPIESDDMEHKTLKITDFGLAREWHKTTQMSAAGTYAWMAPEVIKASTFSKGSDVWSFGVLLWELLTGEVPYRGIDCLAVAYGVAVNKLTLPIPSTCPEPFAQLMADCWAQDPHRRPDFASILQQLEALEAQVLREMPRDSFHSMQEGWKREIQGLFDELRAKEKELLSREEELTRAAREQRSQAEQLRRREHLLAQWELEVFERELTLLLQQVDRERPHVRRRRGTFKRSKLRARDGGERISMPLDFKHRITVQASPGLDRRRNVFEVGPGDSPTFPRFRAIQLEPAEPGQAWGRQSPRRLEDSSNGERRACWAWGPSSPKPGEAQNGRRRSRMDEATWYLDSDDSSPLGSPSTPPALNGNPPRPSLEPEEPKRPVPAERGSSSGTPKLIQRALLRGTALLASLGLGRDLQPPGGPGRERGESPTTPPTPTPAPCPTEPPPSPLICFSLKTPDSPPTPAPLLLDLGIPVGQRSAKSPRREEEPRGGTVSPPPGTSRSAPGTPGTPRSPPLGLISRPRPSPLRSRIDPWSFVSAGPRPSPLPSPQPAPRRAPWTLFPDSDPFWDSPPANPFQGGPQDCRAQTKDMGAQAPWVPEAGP
UniProt P00388, sequence (whole entry, unmodified, looked up): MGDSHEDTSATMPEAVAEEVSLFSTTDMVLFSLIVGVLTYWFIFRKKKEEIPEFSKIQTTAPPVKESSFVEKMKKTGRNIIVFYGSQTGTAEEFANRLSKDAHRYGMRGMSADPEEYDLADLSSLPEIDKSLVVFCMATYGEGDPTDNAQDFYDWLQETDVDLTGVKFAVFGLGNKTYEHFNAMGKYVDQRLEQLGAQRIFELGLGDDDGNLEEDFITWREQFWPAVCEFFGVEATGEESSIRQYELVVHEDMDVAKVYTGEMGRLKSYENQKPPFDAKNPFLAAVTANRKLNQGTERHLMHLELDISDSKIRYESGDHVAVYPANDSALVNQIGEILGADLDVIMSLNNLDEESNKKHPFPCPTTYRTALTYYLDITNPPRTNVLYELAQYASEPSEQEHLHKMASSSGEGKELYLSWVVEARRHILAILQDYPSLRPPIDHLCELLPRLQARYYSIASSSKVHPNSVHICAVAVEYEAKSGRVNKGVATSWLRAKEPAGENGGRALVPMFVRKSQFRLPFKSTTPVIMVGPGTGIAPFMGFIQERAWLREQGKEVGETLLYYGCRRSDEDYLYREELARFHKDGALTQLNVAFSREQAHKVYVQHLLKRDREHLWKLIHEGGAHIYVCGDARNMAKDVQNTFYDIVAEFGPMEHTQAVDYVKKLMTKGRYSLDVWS
UniProt Q969S8, sequence (whole entry, looked up): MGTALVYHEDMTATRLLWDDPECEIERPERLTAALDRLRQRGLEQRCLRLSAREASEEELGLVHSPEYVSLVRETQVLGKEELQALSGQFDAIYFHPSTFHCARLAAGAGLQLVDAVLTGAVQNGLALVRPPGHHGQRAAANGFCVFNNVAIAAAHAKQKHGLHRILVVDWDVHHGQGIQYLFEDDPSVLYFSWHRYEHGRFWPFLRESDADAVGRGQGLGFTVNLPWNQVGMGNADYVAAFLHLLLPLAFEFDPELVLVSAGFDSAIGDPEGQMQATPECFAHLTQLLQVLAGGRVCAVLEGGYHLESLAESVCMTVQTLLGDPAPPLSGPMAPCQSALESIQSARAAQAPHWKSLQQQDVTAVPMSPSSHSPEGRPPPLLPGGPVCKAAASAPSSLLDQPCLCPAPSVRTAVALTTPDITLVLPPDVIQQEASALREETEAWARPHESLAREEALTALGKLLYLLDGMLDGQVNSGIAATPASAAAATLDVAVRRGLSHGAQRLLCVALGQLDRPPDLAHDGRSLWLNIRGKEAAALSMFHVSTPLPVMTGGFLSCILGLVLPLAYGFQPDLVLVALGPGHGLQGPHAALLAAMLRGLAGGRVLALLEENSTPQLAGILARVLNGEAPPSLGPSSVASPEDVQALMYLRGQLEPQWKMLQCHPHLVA

With `CC[C@@H]1[C@H](F)C(=O)N[C@@H]1COc1nccc2cc(C(N)=O)c(OC)cc12` the IC50 was over 5 µM (Mitogen-activated protein kinase kinase kinase 11 (MAP3K11, Homo sapiens, UniProt Q16584); ATP probe binding, KiNativ profiling, item: MLK3 Lys1 probe site; THP-1 cell lysate).
With `CCc1nc2ccccc2n1C[C@H](O)COc1cc(C)ccc1Cl` the Kd was 48.3 µM (GAP50; binding, surface plasmon resonance; 1:1 binding model).
The Kd of `O=C(O)CNC(=O)c1ccc(C(=O)N2CCC(c3ccc(Cl)cc3)CC2)cn1` is reported as over 1000 µM (USP51 ZnF-UBD domain).
For `NC(=O)c1ccc[n+]([C@@H]2O[C@H](COP(=O)(O)OP(=O)(O)OC[C@H]3O[C@@H](n4cnc5c(N)ncnc54)[C@H](OP(=O)(O)O)[C@@H]3O)[C@@H](O)[C@H]2O)c1`, the Ki was 71.7 ± 7.1 µM (NADPH--cytochrome P450 reductase (Rattus norvegicus, UniProt P00388, del2-56/del675-676); cytochrome c reduction, inhibitor; added: NADPH).
The DC50 of `CN(CCCCCCNC(=O)CNc1cccc2c1C(=O)N(C1CCC(=O)NC1=O)C2=O)Cc1cn(Cc2ccc(C(=O)NO)cc2)c2ccccc12` (centres unmarked) is reported as 0.05 ± 0.0027 µM (Polyamine deacetylase HDAC10 (HDAC10, Homo sapiens, UniProt Q969S8); degrader, western blot; MM1.S cells; 24 h).
For `CCCCCCCCCCCCCCCC`, the Ki was over 50 µM (uncharacterized protein (Bradysia odoriphaga, UniProt A0A2S0X9G4); binding, competitive fluorescence displacement).
For `O=C(O)CNc1ncccn1`, the Kd was over 1000 µM (USP51 ZnF-UBD domain).
For `COc1ccc2nc(/N=N/c3ccc(N(C)C)cc3)sc2c1`, the AC50 was 0.031 ± 0.006 µM (Microtubule-associated protein tau, fibrils (MAPT, Homo sapiens, UniProt P10636); thioflavin S displacement, fluorescence; synthetic 2N4R tau filaments; added: thioflavin S).
`CC1=C(C=O)C(C)(C)CCC1` gave an IC50 of over 50 µM (uncharacterized protein (Drosophila suzukii, UniProt A0AB39ZCT4); binding, bis-ANS competition fluorescence; pH 7.4, added: bis-ANS).
For `CC(C)(C)c1cnc(CSc2cnc(NC(=O)C3CCN(C(=O)CCCCCCCCCCCN4Cc5cc6c(cc5C4)C(=O)N(C4CCC(=O)NC4=O)C6=O)CC3)s2)o1` (centres unmarked), the DC50 was 0.0076 ± 0.0038 µM (CDK9; degrader, Western blot; TC-71).
`Cc1cc(C)cc(COc2ccc3c(C)c(CCC(=O)O)c(=O)oc3c2C)c1` has a Kd of 26.6 µM (GAP50; binding, surface plasmon resonance; 1:1 binding model).
The IC50 of `CCCCCCCCCCCCCCCCCCCCCCC` is reported as over 50 µM (uncharacterized protein (Drosophila suzukii, UniProt A0AB39ZGK5); binding, bis-ANS competition fluorescence; pH 7.4, added: bis-ANS).
For `NS(=O)(=O)c1ccc(NCC(=O)O)cc1`, the Kd was over 1000 µM (USP51 ZnF-UBD domain).
`COc1ccc([C@@H]2CC(c3cccs3)=NN2C(=O)c2ccco2)cc1OC` gave a Kd of 55.1 µM (GAP50; binding, surface plasmon resonance; 1:1 binding model).
`O=C(COc1cc(Cl)ccc1Cl)Nc1cc(C2CCC2)nn1CC(F)(F)F` gave an EC50 of over 10 µM (Kir3.1/Kir3.2; activator, thallium flux; HEK293).
For `CN1CCN(c2ccc(Nc3ncc4cc(C#N)c(=O)n(C5CCCC5)c4n3)cc2)CC1`, the IC50 was 0.0634 µM (Tyrosine-protein kinase ABL2 (ABL2, Homo sapiens, UniProt P42684)).
`CCc1cc(NC(=O)COc2cccc(Cl)c2Cl)n(CC(F)(F)F)n1` gave an EC50 of 0.603 µM (Kir3.1/Kir3.2; activator, thallium flux; HEK293).
`CC(C)(C)c1cnc(CSc2cnc(NC(=O)C3CCN(C(=O)CCCCCCN4Cc5cc6c(cc5C4)C(=O)N(C4CCC(=O)NC4=O)C6=O)CC3)s2)o1` (centres unmarked) has a DC50 of under 0.01 µM (CDK9; degrader, Western blot; U-87 MG glioblastoma; 6 h).
`O=C(NC1CC1)c1ccc(N2CCOc3ccc(Cl)cc32)s1` has a Kd of 96.8 µM (GAP50; binding, surface plasmon resonance; 1:1 binding model).
The EC50 of `CCc1cc(NC(=O)COc2cccc(Cl)c2Cl)n(C2CCOCC2)n1` is reported as 0.19 µM (Kir3.1/Kir3.2; activator, thallium flux; HEK293).

Some of these lines once more:
For `CCCCCCCCCCCCCCCC`, the Ki was over 50 µM (uncharacterized protein (Bradysia odoriphaga, UniProt A0A2S0X9G4); binding, competitive fluorescence displacement).
For `NC(=O)c1ccc[n+]([C@@H]2O[C@H](COP(=O)(O)OP(=O)(O)OC[C@H]3O[C@@H](n4cnc5c(N)ncnc54)[C@H](OP(=O)(O)O)[C@@H]3O)[C@@H](O)[C@H]2O)c1`, the Ki was 71.7 ± 7.1 µM (NADPH--cytochrome P450 reductase (Rattus norvegicus, UniProt P00388, del2-56/del675-676); cytochrome c reduction, inhibitor; added: NADPH).
